Measurements pooled from the literature.
Compare with care: the assays were run in different laboratories. ± gives the spread as reported. Non-standard residues stand in square brackets, D forms with d. Square brackets hold non-standard residues; d marks the D form. Where no end group is shown, it is not given here. Ends that are not written are not given here. No end group written: not given here. [ ]: non-standard residue; d: D form.
BAK1 kinase domain 250-591: BAK1 kinase domain 250-591, pT446/pT449/pT450 (Arabidopsis thaliana, UniProt Q94F62)
UniProt Q94F62, sequence (whole entry, looked up): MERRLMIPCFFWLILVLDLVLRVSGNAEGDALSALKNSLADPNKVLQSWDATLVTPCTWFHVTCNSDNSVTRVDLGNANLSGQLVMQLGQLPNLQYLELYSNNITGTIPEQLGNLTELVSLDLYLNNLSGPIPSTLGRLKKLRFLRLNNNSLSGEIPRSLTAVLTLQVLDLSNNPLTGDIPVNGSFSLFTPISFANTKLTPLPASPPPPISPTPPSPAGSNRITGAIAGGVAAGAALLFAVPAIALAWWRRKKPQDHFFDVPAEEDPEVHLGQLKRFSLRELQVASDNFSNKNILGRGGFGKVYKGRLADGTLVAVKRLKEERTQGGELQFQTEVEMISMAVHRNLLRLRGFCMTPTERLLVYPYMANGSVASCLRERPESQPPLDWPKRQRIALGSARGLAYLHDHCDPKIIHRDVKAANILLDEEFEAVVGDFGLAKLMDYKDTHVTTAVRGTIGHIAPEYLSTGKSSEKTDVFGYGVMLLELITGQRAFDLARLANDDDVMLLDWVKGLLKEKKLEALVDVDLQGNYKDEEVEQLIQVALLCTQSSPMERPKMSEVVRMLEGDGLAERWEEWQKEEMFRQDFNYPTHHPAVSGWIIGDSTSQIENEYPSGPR
B1: K4 peptide residues 1-21 (Kaposi's sarcoma-associated herpesvirus); cysteine pairing not given here; all D-residues; chain [dL]G[dA][dS][dW][dH][dR][dP][dD][dK][dC][dC][dL]G[dY][dQ][dK][dR][dP][dL][dP]
B2: avrPtoB 250-359 (Pseudomonas syringae, UniProt Q8RSY1); chain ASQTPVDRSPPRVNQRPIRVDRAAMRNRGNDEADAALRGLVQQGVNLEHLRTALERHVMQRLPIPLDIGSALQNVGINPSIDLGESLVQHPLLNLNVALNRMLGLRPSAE
B3: avrPtoB 250-380 (Pseudomonas syringae, UniProt Q8RSY1); sequence looked up; chain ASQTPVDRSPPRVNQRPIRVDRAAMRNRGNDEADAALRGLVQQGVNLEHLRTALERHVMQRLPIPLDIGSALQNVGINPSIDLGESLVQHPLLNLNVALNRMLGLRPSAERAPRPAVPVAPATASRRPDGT
UniProt O60602, sequence (whole entry, unmodified, looked up): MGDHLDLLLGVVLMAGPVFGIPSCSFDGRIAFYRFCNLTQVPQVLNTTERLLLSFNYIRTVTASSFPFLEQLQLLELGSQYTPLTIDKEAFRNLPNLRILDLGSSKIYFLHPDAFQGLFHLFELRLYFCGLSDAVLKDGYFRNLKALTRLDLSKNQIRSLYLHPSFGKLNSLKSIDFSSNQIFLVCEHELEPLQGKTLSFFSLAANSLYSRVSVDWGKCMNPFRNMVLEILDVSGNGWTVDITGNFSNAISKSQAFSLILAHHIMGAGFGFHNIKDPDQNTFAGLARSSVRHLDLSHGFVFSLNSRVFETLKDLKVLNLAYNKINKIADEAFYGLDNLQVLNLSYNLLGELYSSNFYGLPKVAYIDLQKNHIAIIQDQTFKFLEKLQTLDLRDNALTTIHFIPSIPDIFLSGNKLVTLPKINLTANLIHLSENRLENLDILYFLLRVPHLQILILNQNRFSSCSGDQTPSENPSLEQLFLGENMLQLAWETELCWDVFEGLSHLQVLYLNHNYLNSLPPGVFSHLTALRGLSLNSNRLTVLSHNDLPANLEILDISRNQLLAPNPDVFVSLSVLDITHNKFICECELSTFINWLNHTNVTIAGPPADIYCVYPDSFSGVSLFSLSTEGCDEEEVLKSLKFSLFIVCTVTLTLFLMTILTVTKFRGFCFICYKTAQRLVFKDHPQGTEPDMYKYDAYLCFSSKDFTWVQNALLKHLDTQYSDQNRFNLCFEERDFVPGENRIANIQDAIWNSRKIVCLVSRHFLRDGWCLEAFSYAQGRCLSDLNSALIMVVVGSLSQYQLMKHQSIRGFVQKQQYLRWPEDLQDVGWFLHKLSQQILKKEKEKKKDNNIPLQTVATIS
UniProt P61073, sequence (whole entry, looked up): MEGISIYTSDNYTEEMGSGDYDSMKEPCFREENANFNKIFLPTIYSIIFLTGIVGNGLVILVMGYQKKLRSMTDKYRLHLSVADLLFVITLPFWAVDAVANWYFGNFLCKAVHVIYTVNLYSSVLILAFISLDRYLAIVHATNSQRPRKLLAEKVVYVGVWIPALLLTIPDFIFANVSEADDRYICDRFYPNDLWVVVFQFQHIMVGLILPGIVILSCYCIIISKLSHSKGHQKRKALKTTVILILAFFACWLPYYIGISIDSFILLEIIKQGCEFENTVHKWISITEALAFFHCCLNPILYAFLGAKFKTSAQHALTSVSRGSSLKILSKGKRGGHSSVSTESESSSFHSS
UniProt P20581, sequence (whole entry, looked up): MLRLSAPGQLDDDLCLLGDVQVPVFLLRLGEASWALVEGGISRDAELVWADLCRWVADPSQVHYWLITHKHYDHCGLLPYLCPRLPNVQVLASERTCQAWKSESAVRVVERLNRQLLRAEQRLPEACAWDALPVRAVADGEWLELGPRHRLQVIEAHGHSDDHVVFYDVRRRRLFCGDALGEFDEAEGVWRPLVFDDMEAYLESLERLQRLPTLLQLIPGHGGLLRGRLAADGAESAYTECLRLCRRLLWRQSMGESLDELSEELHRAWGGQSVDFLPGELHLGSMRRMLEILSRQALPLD
UniProt P00772, sequence (whole entry, looked up): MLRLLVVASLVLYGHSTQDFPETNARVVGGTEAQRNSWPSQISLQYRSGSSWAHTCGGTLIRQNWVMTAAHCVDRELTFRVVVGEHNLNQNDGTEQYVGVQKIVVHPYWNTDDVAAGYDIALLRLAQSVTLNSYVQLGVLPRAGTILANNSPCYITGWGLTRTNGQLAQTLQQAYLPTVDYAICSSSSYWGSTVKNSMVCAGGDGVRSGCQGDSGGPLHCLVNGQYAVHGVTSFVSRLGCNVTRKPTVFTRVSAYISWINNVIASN
UniProt O15392, sequence (whole entry, unmodified, looked up): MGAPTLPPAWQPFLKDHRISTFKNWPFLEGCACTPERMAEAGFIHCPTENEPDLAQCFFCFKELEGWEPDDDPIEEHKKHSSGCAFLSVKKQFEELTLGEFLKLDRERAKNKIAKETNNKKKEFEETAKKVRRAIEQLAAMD

fur (Acinetobacter baumannii, UniProt Q9ZAJ4) — relative binding (BlsA (Acinetobacter baumannii); pull-down; relative to: light, higher = more binding in dark): 2 fold
RmS-3, glycosylated (Rhipicephalus microplus) — protease inhibition (PLG plasmin (Homo sapiens); chromogenic substrate hydrolysis, inhibitor; 1 µM): < 20%
NLWAAQRYGRELRRMSDEFVDSFKK (BAD BH3 domain) — Kd (M11 1-136 (UniProt P89884); ITC; peptide; 14 °C, single-site model): 33.1 µM
RmS-17, glycosylated (Rhipicephalus microplus) — protease inhibition (trypsin (Bos taurus); chromogenic substrate hydrolysis, inhibitor; 1 µM): 87%
B1 (K4 peptide residues 1-21) — IC50 (CXCR4 (Homo sapiens, UniProt P61073); competition with 12G5 antibody, competitor, flow cytometry; peptide, CXCR4 transfected cells): 0.043 µM
NSRQTDR — inhibition (peptide, human polyclonal IgM RF MCC; concentration not given, 5 µg/mL mAb II-481 coated, added: RF at 50% max binding concentration): 0%
AR[pT]KQTARKSTGGKA (histone H3 2-16 (UniProt P68431); pT3; pT = C[C@@H](OP(=O)(O)O)[C@H](N)C(=O)O; sequence looked up) — Kd (BIRC5 E65A (Homo sapiens, UniProt O15392); ITC; peptide; pH 7.5, 25 °C, NaCl 100 mM): 93.4 ± 6.5 µM
SipD fragment C244S/L318C, MTSL spin label at 318 (Salmonella) (sequence not shown) — binding (PrgI fragment (Salmonella); NMR paramagnetic relaxation enhancement): binds
melittin — partitioning enthalpy (isothermal titration calorimetry; POPC/POPG LUVs 50:50%; 100 µM, pH 7.0, 50 °C): -16.7 kcal/mol
RmS-6, glycosylated (Rhipicephalus microplus) — protease inhibition (CELA1 (Sus scrofa, UniProt P00772); chromogenic substrate hydrolysis, inhibitor; 1 µM): < 20%
CNSRQTDREDELI — inhibition (peptide, human polyclonal IgM RF WEAK; concentration not given, 5 µg/mL mAb II-481 coated, added: RF at 50% max binding concentration): 0%
RUNX3 deletion of PPPY motif — half-life (CagA (Helicobacter pylori, UniProt P80200); cycloheximide chase; COS-7; co-expressed with CagA): > 4 h
B2 (avrPtoB 250-359) — molecule per partner (BAK1 kinase domain 250-591; crystal structure): 1
fliC del126-128/T129G/Q130G/K135E (Salmonella enterica) — decrease in NF-κB reporter signaling (TLR5 (Homo sapiens, UniProt O60602); NF-κB luciferase reporter; HEK293; EC50 ratio; relative to: CBLB502 EC50, higher = weaker activity): 800 fold
AR[pT]KQTARKSTG (H3C1 1-12; pT3; pT = C[C@@H](OP(=O)(O)O)[C@H](N)C(=O)O) — Kd (BIRC5 1-142 (Homo sapiens, UniProt O15392); ITC; peptide; pH 8.2, 25 °C): 46.4 ± 5.2 µM
B3 (avrPtoB 250-380) — binding (BAK1 kinase domain 250-591; SEC): binds
LDYHFGLEEGEGIRDLFD (E2F1 409-426 (Homo sapiens, UniProt Q01094)) — Kd (RB1/E7 RB ; E7 55-787 del245-267/del582-642 (human papillomavirus); ITC; pH 8.0, NaCl 100 mM, added: LxCxE peptide 100 µM): 0.11 µM
rhlR mBTL-bound (Pseudomonas aeruginosa) — light production enhancement (pqsE 1-301 (Pseudomonas aeruginosa, UniProt P20581); reporter light production; in cells, added: mBTL; relative to: strain without PqsE, higher = more light): 4 fold
VLRKTRHVNILLFM (BRAF 504-517) — Kd (BRAF kinase domain with dimer interface; fluorescence titration; peptide): 5.75 ± 1.2 µM

For quick reference, copied from above:
AR[pT]KQTARKSTG (H3C1 1-12; pT3; pT = C[C@@H](OP(=O)(O)O)[C@H](N)C(=O)O) — Kd (BIRC5 1-142 (Homo sapiens, UniProt O15392); ITC; peptide; pH 8.2, 25 °C): 46.4 ± 5.2 µM
B3 (avrPtoB 250-380) — binding (BAK1 kinase domain 250-591; SEC): binds
